Assay results pooled from the literature.
Lines come from different studies, so protocols differ. ± marks the error that the study gave.

SMILES | assay | system | conditions | tissue uptake
Cc1cc(C)n(CCN(CCN)CCCCCCNC(=O)[C@@H](N)Cc2c[nH]cn2)n1.[99Tc+].[C-]#[O+].[C-]#[O+].[C-]#[O+] |  | BALB/c nude mice, MCF7 xenograft, muscle | intravenous, 15 min | 0.65 ± 0.17 %IA/g
CCCC[C@H](NC(=O)CNC(=O)CNC(=O)[C@H](CCCCNC(=O)[C@H](CC(=O)O)NC(=O)C(C)c1ccc(CC(C)C)cc1)NC(=O)CN1CCN(CC(=O)O)CCN(CC(=O)O)CCN(CC(=O)O)CC1)C(=O)N[C@H]1CC(=O)NCCCC[C@@H](C(N)=O)NC(=O)[C@H](Cc2c[nH]c3ccccc23)NC(=O)[C@H](CCCNC(=N)N)NC(=O)[C@@H](Cc2ccccc2)NC(=O)[C@H](Cc2c[nH]cn2)NC1=O (some centres unmarked) [lutetium-177 labelled] |  | C57 mice, tumour-bearing, spleen | intravenous, 0.037 MBq, 24 h | 0.31 ± 0.03 %ID/g
N#C[C@@H]1CCCN1C(=O)CNC(=O)c1ccnc2ccc(OCCCN3CCN(C(=O)CCc4ccc(O)c(CN5CCN6CC(=O)[O][Al-]([18F])([O]C(=O)C5)[O]c5ccc(CCC(=O)N7CCN(CCCOc8ccc9nccc(C(=O)NCC(=O)N%10CCC[C@H]%10C#N)c9c8)CC7)cc5C6)c4)CC3)cc12 (some centres unmarked) |  | BALB/c nude mice, U-87 MG xenograft, liver | 1 h, blocking, added: DOTA-FAPI-04 40 nmol/mouse co-injected | 7.37 ± 1.11 %ID/g
COc1ccc(Nc2nc(Nc3ccc(OCCOCC[18F])cc3)ncc2Br)cc1 |  | ICR mice, S180 tumour, lung | intravenous, 30 min, added: PF-562271 33 mg/kg oral 1 h before | 2.35 ± 0.23 %ID/g
CC(C)C[C@H](NC(=O)[C@@H](CCCCNC(=O)[C@@H](Cc1ccccc1)NC(=O)CCCCCCCNC(=O)CN1CCN(CC(=O)O)CCN(CC(=O)O)CCN(CC(=O)O)CC1)NC(=O)[C@H](Cc1ccc(O)cc1)NC(=O)[C@H](CO)NC(=O)[C@H](Cc1c[nH]c2ccccc12)NC(=O)[C@H](Cc1c[nH]cn1)NC(=O)[C@@H]1CCC(=O)N1)C(=O)N[C@@H](CCCNC(=N)N)C(=O)N1CCC[C@H]1C(=O)NCC(N)=O [indium-111 labelled] |  | male athymic nude mice, DU-145 prostate cancer xenograft, blood | intravenous, 0.037 MBq, 1 h | 0.58 ± 0.21 %ID/g
O=C([O-])CN1CCN(CC(=O)[O-])CCN(CC(=O)NC[C@H]2CC[C@H](C(=O)N[C@H](Cc3cnc4ccccc4c3)C(=O)NCCCC[C@H](NC(=O)N[C@@H](CCC(=O)O)C(=O)O)C(=O)O)CC2)CCN(CC(=O)[O-])CC1.[64Cu+2] | ex vivo gamma counting | 22Rv1 tumour-bearing mice, tumor | intravenous, 0.74 MBq, 2 h post-injection | 14.9 %ID/g
O=C(NCC1OC2CCC=CCCC2O1)c1ccc([18F])nc1 (centres unmarked) |  | female BALB/c nude mice, LS174T tumour, tumor | intravenous, 60 min, added: unmodified CC49 24 h before | 0.8 ± 0.2 %ID/g
N#C[C@@H]1CCCN1C(=O)CNC(=O)c1ccnc2ccc(OCCCN3CCN(C(=O)CCc4ccc5c(c4)CN4CCN(Cc6cc(CCC(=O)O)ccc6O)CC(=O)[O][Al-]([18F])([O]C(=O)C4)[O]5)CC3)cc12 (some centres unmarked) |  | BALB/c nude mice, U-87 MG xenograft, heart | 1 h | 0.93 ± 0.21 %ID/g
Cc1cc(C)n(CCN(CCN)CCCCCCNC(=O)[C@@H](N)Cc2c[nH]c3ccccc23)n1.[99Tc+].[C-]#[O+].[C-]#[O+].[C-]#[O+] |  | BALB/c nude mice, A549 xenograft, kidney | intravenous, 4 h | 7.4 ± 1.15 %IA/g
CCCC[C@H](NC(=O)CNC(=O)CNC(=O)[C@H](CCCCNC(=O)C(C)c1ccc(CC(C)C)cc1)NC(=O)CN1CCN(CC(=O)O)CCN(CC(=O)O)CCN(CC(=O)O)CC1)C(=O)N[C@H]1CC(=O)NCCCC[C@@H](C(N)=O)NC(=O)[C@H](Cc2c[nH]c3ccccc23)NC(=O)[C@H](CCCNC(=N)N)NC(=O)[C@@H](Cc2ccccc2)NC(=O)[C@H](Cc2c[nH]cn2)NC1=O (some centres unmarked) [lutetium-177 labelled] |  | C57 mice, tumour-bearing, heart | 2 h | 0.8 ± 0.11 %ID/g
CCCC[C@H](NC(=O)CCCCCCCNC(=O)CN1CCN(CC(=O)O)CCN(CC(=O)O)CC1)C(=O)N[C@H]1CC(=O)NCCCC[C@@H](C(N)=O)NC(=O)[C@H](Cc2c[nH]c3ccccc23)NC(=O)[C@H](CCCNC(=N)N)NC(=O)[C@@H](Cc2ccccc2)NC(=O)[C@H](Cc2c[nH]cn2)NC1=O [fluorine-18 labelled] |  | C57 mice, B16/F10 melanoma, bone | intravenous, 1 h, added: NDP-MSH 10 µg | 0.94 ± 0.3 %ID/g
O=C(NCC1OC2CCC=CCCC2O1)c1ccc(COCCOCCOCC[18F])cc1 (centres unmarked) |  | healthy female BALB/c nude mice, bone | intravenous, 7.4 MBq per mouse, 60 min | 2.1 ± 0.1 %ID/g
CCCC[C@H](NC(=O)COCCOCCNC(=O)CN1CCN(CC(=O)O)CCN(CC(=O)O)CC1)C(=O)N[C@H]1CC(=O)NCCCC[C@@H](C(N)=O)NC(=O)[C@H](Cc2c[nH]c3ccccc23)NC(=O)[C@H](CCCNC(=N)N)NC(=O)[C@@H](Cc2ccccc2)NC(=O)[C@H](Cc2c[nH]cn2)NC1=O [fluorine-18 labelled] |  | C57 mice B16-F10 melanoma, liver | intravenous, 0.37 MBq, 2 h | 0.83 ± 0.14 %ID/g
COc1ccc(Nc2nc(Nc3ccc(OCCOCCOCC[18F])cc3)ncc2Br)cc1 |  | ICR mice, S180 tumour-bearing, kidney | intravenous, 370 kBq, 5 min | 2.07 ± 0.16 %ID/g

For quick reference, copied from above:
SMILES | assay | system | conditions | tissue uptake
Cc1cc(C)n(CCN(CCN)CCCCCCNC(=O)[C@@H](N)Cc2c[nH]c3ccccc23)n1.[99Tc+].[C-]#[O+].[C-]#[O+].[C-]#[O+] |  | BALB/c nude mice, A549 xenograft, kidney | intravenous, 4 h | 7.4 ± 1.15 %IA/g
